Published values gathered from unrelated publications.
Each numbered part is a random draw from the data of one study; scales do not carry over between parts.

Series 1 — method: universal PBM; form: double-stranded DNA, one strand shown; matrix: in vitro; tested at: 600 nM; direction: higher = stronger binding
Target: Sal-like protein 4, full length isoform A (SALL4, Homo sapiens, UniProt Q9UJQ4, residues 1-1053)
Chain of UniProt Q9UJQ4 (whole entry, looked up): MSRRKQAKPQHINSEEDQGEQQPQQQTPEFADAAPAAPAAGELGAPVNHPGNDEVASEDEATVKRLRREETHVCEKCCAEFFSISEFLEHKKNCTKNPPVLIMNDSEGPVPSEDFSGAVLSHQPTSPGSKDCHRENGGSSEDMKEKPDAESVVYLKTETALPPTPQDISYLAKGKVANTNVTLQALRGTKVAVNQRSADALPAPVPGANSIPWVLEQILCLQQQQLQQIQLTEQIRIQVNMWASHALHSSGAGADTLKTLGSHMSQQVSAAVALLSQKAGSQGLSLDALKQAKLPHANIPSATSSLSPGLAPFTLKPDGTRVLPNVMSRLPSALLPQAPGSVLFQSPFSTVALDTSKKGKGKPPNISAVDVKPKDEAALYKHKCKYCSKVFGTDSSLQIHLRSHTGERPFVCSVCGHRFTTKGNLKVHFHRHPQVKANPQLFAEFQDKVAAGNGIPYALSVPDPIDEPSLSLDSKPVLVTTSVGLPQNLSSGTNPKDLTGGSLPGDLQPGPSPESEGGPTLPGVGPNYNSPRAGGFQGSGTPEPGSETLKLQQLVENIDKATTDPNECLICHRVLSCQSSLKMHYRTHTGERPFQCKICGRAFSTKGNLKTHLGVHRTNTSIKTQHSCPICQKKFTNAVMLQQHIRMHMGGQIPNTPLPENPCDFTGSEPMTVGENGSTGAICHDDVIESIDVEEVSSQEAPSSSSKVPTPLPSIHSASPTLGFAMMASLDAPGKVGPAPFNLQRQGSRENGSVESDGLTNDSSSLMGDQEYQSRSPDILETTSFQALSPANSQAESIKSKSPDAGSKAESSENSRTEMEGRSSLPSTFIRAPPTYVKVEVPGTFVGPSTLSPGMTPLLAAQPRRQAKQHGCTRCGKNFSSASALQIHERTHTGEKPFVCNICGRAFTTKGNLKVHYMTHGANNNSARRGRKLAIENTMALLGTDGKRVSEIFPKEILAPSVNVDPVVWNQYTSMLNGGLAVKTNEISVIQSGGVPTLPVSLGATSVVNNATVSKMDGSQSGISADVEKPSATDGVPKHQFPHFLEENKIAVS
Notes: 8-mer, flanks averaged, mean of replicates
Sequence | E-score
CCCTGATA | 0.049
ACGGACTA | 0.00842
GTAATTTA | 0.333
AAGGTAGA | 0.133
CGGATTGC | -0.0962
CAATGGAA | 0.104
CTACAGCC | -0.186
AGTGGGCC | -0.322
ATCCAGAA | 0.139
AGCCGAAG | -0.168
CTTAGCCC | -0.218
GCATATAA | 0.351
CGACATTC | -0.019
CTTGGTTC | 0.0369
CATGTGGG | -0.138
ACAATAAT | 0.428
GCACCGAA | -0.0793
GTTATTTA | 0.339
CAGCACAC | -0.102
CGTAGAGC | -0.215
CATGACGA | -0.124
GAGCAGAA | 0.0583
AACTGGAG | -0.069
AGAAGCCT | 0.0155
GCAGATCA | -0.162

Series 2 — method: protein-binding microarray; form: double-stranded DNA, one strand shown; matrix: in vitro; tested at: 250 nM; notes: 60-bp whole probe; added: salmon DNA 0.4 mg/ml; reference: random background probes; direction: higher = stronger binding; constant ends, left off below: GCCTAGCAC … GTCTTGATTCGCTTGACGCTGCTG
Target: Interferon regulatory factor 7, full length, phosphomimetic (IRF7, Homo sapiens, UniProt Q92985, residues 1-503, S101K/S471D/S472D/S475D/S476D/S477D/S483D/S484D/S487D)
Construct (chain): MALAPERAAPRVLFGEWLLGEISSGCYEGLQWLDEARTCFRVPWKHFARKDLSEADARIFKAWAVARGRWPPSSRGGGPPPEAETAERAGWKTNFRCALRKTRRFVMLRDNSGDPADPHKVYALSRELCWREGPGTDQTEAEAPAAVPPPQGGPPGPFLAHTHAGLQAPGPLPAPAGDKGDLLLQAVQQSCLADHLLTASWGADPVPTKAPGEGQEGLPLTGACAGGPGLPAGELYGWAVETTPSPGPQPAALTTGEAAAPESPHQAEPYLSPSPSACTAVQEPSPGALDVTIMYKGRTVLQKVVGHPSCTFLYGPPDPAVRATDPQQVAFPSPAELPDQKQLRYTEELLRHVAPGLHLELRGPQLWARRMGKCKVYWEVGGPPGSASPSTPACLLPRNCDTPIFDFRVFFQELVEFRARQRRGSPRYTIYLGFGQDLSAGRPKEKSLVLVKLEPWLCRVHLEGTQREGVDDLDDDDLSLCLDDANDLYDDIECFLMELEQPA
Sequence | log fluorescence [z-score]
ATGTATACACACTATAGTGAAGTGCTA | 0.358
TTAGGTATCCTTCTCCGTTAGTGCTAG | 0.599
CACGAACTGAGTTTCGAGACGTGCTAG | 3.7
GACGATATCGGGTATCGAGTCGTGCTA | 0.468
GACGCTCTCCTTTTCCTGACGTGCTAG | 0.873
ACTCATTTTCATTTTGTGTCGTGCTAG | 2.38
TTAGATATCAGTTTCCATTAGTGCTAG | 2.8
GACGGATTGGACTTTCGGGACGTGCTA | -0.21
TTAGGTTCCCTTTTGCTTTAGTGCTAG | 4.08
TTAGGTATCGGATTCGGTTAGTGCTAG | 4.69
CAAATTGTCTCTGTCCCTGTGTGCTAG | 0.216
GACGATATCAGTTTCGAGTCGTGCTAG | 8.25
GACGATTTCAGACTGGTGACGTGCTAG | 0.17
GACGATTTCAGTCTCGGGACGTGCTAG | 0.19
TCATAACTCATTCTCTGACTGTGCTAG | 0.612
TTAGGTTTCGGTATAGGTTAGTGCTAG | 10.2
CTGCCCTGGTTCCCCTGCCTGTGCTAG | 0.607
TCAGTTTCTATTTTCTGACTGTGCTAG | 9.33
CTTTCTTTACTTCACTCTCTGTGCTAG | 2.01
TACGGTCTCGGTATCGGGACGTGCTAG | 2.15
TCATGTCTGTAGCTCATACTGTGCTAG | -0.0162
TTAGATTTCGGGACTGGATGAGTGCTA | 0.249
TCAGTTTTCATTATTGTACTGTGCTAG | 1.45
TCAGATTTCAGTTTCTCACTGTGCTAG | 1.55
GACTGTATCGGGTTTCGGGACGTGCTA | 2.25

Series 3 — method: RNA Bind-n-Seq; form: RNA; matrix: in vitro; tested at: 200 nM; notes: whole 134-nt RNA, ends assumed; added: 150 mM KCl; reference: input library; direction: higher = stronger binding
Target: Ras GTPase-activating protein-binding protein 1, full length (G3BP1, Homo sapiens, UniProt Q13283)
Chain of UniProt Q13283 (whole entry, looked up): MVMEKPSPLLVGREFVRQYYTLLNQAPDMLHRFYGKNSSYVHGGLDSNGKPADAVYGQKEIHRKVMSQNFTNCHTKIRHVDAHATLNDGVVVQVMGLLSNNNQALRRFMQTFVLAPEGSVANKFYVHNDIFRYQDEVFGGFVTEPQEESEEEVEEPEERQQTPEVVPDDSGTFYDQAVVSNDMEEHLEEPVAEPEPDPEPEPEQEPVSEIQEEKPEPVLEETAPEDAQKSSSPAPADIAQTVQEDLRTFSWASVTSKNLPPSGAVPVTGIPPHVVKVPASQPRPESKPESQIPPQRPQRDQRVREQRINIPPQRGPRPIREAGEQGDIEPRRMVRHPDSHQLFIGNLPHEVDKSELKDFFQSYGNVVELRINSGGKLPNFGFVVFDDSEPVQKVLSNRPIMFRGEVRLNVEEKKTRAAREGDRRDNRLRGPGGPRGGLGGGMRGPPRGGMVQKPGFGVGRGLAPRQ
Sequence | log2 enrichment
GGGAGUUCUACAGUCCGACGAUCGUCCUGUGCUACACAUCGUAUGUACCGAAUCGGGUUUUUGGGUUUGGGUUUUUUUGGGAAAGUAUUAUGUUACGCCGUUCGGAUCUGCACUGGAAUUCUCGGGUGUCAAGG | -0.504
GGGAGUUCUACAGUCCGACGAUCCAAGUCCUGUGCUACACAUCGUAUGUACCGAAUCGGGUUUUUUUGGGUGGGAGGGAAAGUAUUAUGUUACGCCGUUCGGAUCUGCACUUCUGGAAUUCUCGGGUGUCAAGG | 0.562
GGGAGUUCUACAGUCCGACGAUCACCAUGCAGGUGGAAAUCUUUGGGAAGUGGGGCAAGGGGGGGAUAGGGAGGGGGGUAACACUUUGGGAACAGGUGGUCCCAGGUCGUUUCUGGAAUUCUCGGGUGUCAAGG | 0.835
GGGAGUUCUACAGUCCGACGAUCGUCCUGUGCUACACAUCGUAUGUACCGAAUCGGGGAAAAAGGGGAGGGGAAAAAGGGGAAAGUAUUAUGUUACGCCGUUCGGAUCUGCACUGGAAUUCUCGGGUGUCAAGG | 0.421
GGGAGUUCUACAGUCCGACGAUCUAUCUUAUCUACACAUGGGGGACUGAAGAGUUCGAGAGAUCCAAGAGGAAGAAUCCAGCUGCCUAUGAAAAUGACAAAUGAGCAACGCAUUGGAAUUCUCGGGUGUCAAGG | -0.272
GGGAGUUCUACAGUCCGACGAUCCACAGACAACACGCACCCACACAGACACAGAGGGAAGGGGUUGGGAUGGGGACAGGGUGCACAGCAGGGCGGGGUAGGACCAAAGCCCCUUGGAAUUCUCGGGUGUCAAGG | 1.79
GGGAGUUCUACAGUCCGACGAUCGUCCUGUGCUACACAUCGUAUGUACCGAAUCGGGAAAGGGAAAAAGGGAAAAAAAGGGAAAGUAUUAUGUUACGCCGUUCGGAUCUGCACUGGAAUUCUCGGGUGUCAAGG | -0.503
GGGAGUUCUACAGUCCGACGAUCUGGCCCUGGUGGCAUGCGGGGAGGAAGAGGUGGCCUUAUGGAUCGUGGUGGUCCCGGUGGAAUGUUCAGAGGUGGCCGUGGUGGAGACAGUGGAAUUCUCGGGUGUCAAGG | 0.537
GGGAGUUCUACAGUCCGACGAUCUAACUUUAGAGGAGGAUUUGAUGGAUAUGGCAGUGGACGUGGAUUUGGGGAUGGCUAUAAUGGGUAUGGAGGAGGACCUGGAGGUGGCAAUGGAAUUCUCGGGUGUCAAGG | 0.359
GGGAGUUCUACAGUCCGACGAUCCAAGUCCUGUGCUACACAUCGUAUGUACCGAAUCGGCCCCGGCCCCGGCCCCGGGAAAGUAUUAUGUUACGCCGUUCGGAUCUGCACUUCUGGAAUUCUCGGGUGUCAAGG | -0.834

Series 4 — method: RNA Bind-n-Seq; form: RNA; matrix: in vitro; tested at: 365 nM; reference: no-protein control; direction: higher = stronger binding
Target: RNA binding protein fox-1 homolog 2, RRM domain, GST-SBP tag (RBFOX2, Homo sapiens, UniProt O43251-10, residues 100-194)
Notes: natural RNA segment, single round, ends assumed
Residues (chain): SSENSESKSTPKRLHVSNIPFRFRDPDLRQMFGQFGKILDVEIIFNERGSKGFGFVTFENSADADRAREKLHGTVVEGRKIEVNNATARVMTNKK
Sequence | RBNS enrichment (R)
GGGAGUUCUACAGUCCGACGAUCGCCCCAGCAGGGCACCGUGUGUGUGAGUGUGGUUUGGUGCUGUUUUGGAGUGUGCCUGCCCCCCAGCCUGGAACCCUCUGAUCAACUUGCUGGGACCUAUAACGUCUUAGUGGAAUUCUCGGGUGCCAA | 0.735
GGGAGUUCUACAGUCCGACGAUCCCAUACACUUUAGAAGAACGCUUCUCUUCUAUUCCAAUAAAAAGUCCUUUUAGCAAUGCAACAUAUUAACAAAAUUGGGUGCAUUCAGGGUGGUAUGGCCAUAGACCAGAUGGAAUUCUCGGGUGCCAA | 0.366
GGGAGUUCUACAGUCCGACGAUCCUCAACCCAGCUUUUUGUCAUUCACUUCCUUUUGUUCUCUCUCUGGUCACUGCCCUUACCUGACCCUCACAGAAAGAGAGCUCUGAGCAGGUGAGGGGGUCUGCGGUGGCUGGAAUUCUCGGGUGCCAA | 0.846
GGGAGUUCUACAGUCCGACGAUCUUAAAUAUGGCACUGCUUCUAAGCCUCGUUCCAGUUAAGUUUCACAUGACAGUUAGCUCCUCUGACCUGUCUUUCUAGGUAACUGGAAAUGAACUUCAGGCUUGAUACAGUGGAAUUCUCGGGUGCCAA | 0.249
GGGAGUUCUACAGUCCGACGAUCUCCUGCCGCCUUCCAGUUCCUUGGUGUCCCGUGCACCCCUUCUGUCUGUCCCCUUUCAUGGCUGUGCAGCCGUCCCGCUGGAGUGGCCAUGUCCCUUGUGCAUUGAGUGCUGGAAUUCUCGGGUGCCAA | 1.28
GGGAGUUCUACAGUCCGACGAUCCUAUAGCGGAAAUUCUUAAUAAUGUUUGAAGAAGGGCCCCAUGAUUUCAUUUUGUGCUGAGCCCUCAAAAUUAUGUCUGUUUCGUGGUGGGAAAUAUCCUAUGUUUUCUUUGGAAUUCUCGGGUGCCAA | 0.437
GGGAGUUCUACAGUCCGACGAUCAUGUGCAAAUAAUACCAUAUUCAUUUUUUAUUUAACAUGGGGAUGGAAUGGGGAUAGCAUACAUUUUAUUUGUACAAUAUUUAACAAUCACUUAUUCAAGGUGGGAUUUUUGGAAUUCUCGGGUGCCAA | 0.626
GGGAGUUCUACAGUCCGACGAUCCUGUAAGCCCUUCCCUAUCAGAGACAGUUGCAGAGUAGAGGAUAUUGAGGGGUUGAGGGGUUGAUCUGAGCUGGUGCCACUGCGAGCACAGCCUACAUGGUGAAUCCAGAUGGAAUUCUCGGGUGCCAA | 0.459
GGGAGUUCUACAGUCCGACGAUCGGAGCAGAGGGCACCCCAGGCCCUUCUUGCUCCACAGUCCCCCGCCCGCAGCAUACUCCACUCAUAACCGUAUAUUACAAACUCAUUUUGGUUUCUGGCUUUUUGUUUUGUGGAAUUCUCGGGUGCCAA | 0.499
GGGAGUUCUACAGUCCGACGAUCCCAGCCAAGAUGGGGCCAUUCUCUCUGUGGAGGAGCCCCUUCCAGCCUUUGUCAGGAAGUGUCUUUGGGGAUUCUAGAAUGUUGGGACUUCUCAGUGUGUGUGUUGUGGUUGGAAUUCUCGGGUGCCAA | 6.27
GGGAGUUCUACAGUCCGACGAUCAACAAGAUCACCCAGCAUCCUUCCCCACCCCAGCUGUGUAUUUAUAUAGAUGGAAAUAUACUUUAUAUUUUGUAUCAUCGUGCCUAUAGCCGCUGCCACCGUGUAUAAAUUGGAAUUCUCGGGUGCCAA | 0.549
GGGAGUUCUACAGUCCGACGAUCAAGGGUAUGCCCCUGGCCACUAGAGAUCCUUAGAAACAGGUCUCUGAAGGAAAGGAGAUGCCAGGAUGCUACUCCAUUCCUUCUCUGGGAAUUGCCAGUCCAACUUUUCCUGGAAUUCUCGGGUGCCAA | 0.385

A few entries again (series 2):
Sequence | log fluorescence [z-score]
TCAGATTTCAGTTTCTCACTGTGCTAG | 1.55
TCAGTTTCTATTTTCTGACTGTGCTAG | 9.33
GACTGTATCGGGTTTCGGGACGTGCTA | 2.25
TACGGTCTCGGTATCGGGACGTGCTAG | 2.15
TCATAACTCATTCTCTGACTGTGCTAG | 0.612
GACGATTTCAGACTGGTGACGTGCTAG | 0.17
TTAGATTTCGGGACTGGATGAGTGCTA | 0.249
GACGGATTGGACTTTCGGGACGTGCTA | -0.21
GACGATATCGGGTATCGAGTCGTGCTA | 0.468
TTAGGTATCGGATTCGGTTAGTGCTAG | 4.69
